Published values of several laboratories.
Each numbered part is a random draw from the data of one study; scales do not carry over between parts.

Study 1 — technique: aptamer microarray, sandwich; form: DNA with 2'F-ANA; medium: in vitro; tested at: 200 nM; added: Cy3 exosite-II aptamer, 400 nM; direction: higher = stronger binding; oligonucleotide: GGTTGGTGTGGTTGG
Target: Prothrombin, mature alpha-thrombin (F2, Homo sapiens, UniProt P00734)
Notes: whole 15-mer aptamer, many near background
`2'F-ANA at 1 2 3 6 7 8 9 11 12`: “mean fluorescence intensity” 352 a.u.
Under “mean fluorescence intensity”, `2'F-ANA at 1 3 4 5 7 8 9 11 13 15` is recorded as 59.8 a.u.
`2'F-ANA at 2 3 7 8 10 11 14 15`: “mean fluorescence intensity” 250 a.u.
For `2'F-ANA at 2 3 6 7 11 15`, “mean fluorescence intensity” read 611 a.u.
Under “mean fluorescence intensity”, `2'F-ANA at 3 4 5 7 9 11 12 13 14` is recorded as 51.8 a.u.
`2'F-ANA at 1 2 4 5 9 10 12 13 14 15`: “mean fluorescence intensity” 54 a.u.
`2'F-ANA at 1 2 4 6 7 12 15` — result for “mean fluorescence intensity”: 246 a.u.
`2'F-ANA at 4 5 7 10 11 12 14 15`: “mean fluorescence intensity” 50.5 a.u.
Under “mean fluorescence intensity”, `2'F-ANA at 4 5 6 10` is recorded as 57.9 a.u.
For `2'F-ANA at 2 3 5 7 8 9 12 15`, “mean fluorescence intensity” read 254 a.u.
`2'F-ANA at 3 4 13 14 15`: “mean fluorescence intensity” 306 a.u.
`2'F-ANA at 2 5 6 8 10 15`: “mean fluorescence intensity” 46.6 a.u.
Under “mean fluorescence intensity”, `2'F-ANA at 4 6 8 11 13 14` is recorded as 80.9 a.u.
`2'F-ANA at 2 4 6 7 8 11` — result for “mean fluorescence intensity”: 270 a.u.
Under “mean fluorescence intensity”, `2'F-ANA at 1 2 3 5 7 9 10 11 14` is recorded as 52.8 a.u.
For `2'F-ANA at 1 2 3 5 7 8 9 10 11 14 15`, “mean fluorescence intensity” read 47.7 a.u.
Under “mean fluorescence intensity”, `2'F-ANA at 1 2 3 5 9 10 11 12 15` is recorded as 52.3 a.u.
`2'F-ANA at 1 4 8 10 11 13`: “mean fluorescence intensity” 50.4 a.u.
`2'F-ANA at 3 4 5 13`: “mean fluorescence intensity” 65.1 a.u.
For `2'F-ANA at 3 6 7 10 12 14 15`, “mean fluorescence intensity” read 411 a.u.
`2'F-ANA at 1 2 4 5 8 9 10 15` — result for “mean fluorescence intensity”: 43.4 a.u.
For `2'F-ANA at 3 4 5 6 11 12 13 15`, “mean fluorescence intensity” read 99.9 a.u.

Study 2 — technique: RNA Bind-n-Seq; form: RNA; medium: in vitro; tested at: 365 nM; relative to: no-protein control; direction: higher = stronger binding
Target: RNA binding protein fox-1 homolog 2, RRM domain, GST-SBP tag (RBFOX2, Homo sapiens, UniProt O43251-10, residues 100-194)
Notes: natural RNA segment, single round, ends assumed
`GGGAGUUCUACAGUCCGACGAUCGUCCCCCAUUCCUAGGCCUAACCUUGCUUGAACAGGGUUGGGCAAAGCUGCGGUAUUAUUGGUUGAGAGGCGUCUUCUCACCUCUGGCUGAGAGCACUGGUGGGUUUGCAUGGAAUUCUCGGGUGCCAA`: “RBNS enrichment (R)” 6.1.
For `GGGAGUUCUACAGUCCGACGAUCAUGUAGGGUGAUGAGCACUCACAAUUGUUGACUAAAAUGCUGCUUUUAAAACAUAGGAAAGUAGAAUGGUUGAGUGCAAAUCCAUAGCACAAGAUAAAUUGAGCUAGUUAUGGAAUUCUCGGGUGCCAA`, “RBNS enrichment (R)” read 0.654.
`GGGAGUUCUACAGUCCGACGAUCCCCCUCUGUCAUGGCAGCUCUGCAGGGGCAUGAAUCUGAGUGACGAGAGCCUGCGUUCUUCUGCCUCAGCUCUGCUCCUCAGGAAGGGGUGGCUCCAGCUGCCCACCAUUUGGAAUUCUCGGGUGCCAA`: “RBNS enrichment (R)” 1.1.
`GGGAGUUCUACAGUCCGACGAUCUUUGUUUCCAGACCUGAUUAAAAUUUGGUUUAUUCUAAUUUCUGUACUAUAUCAUCUGAGGUUUUAAGUGGUAACUGGUUCUAUACCAUGUAUGUAUCAUAUGUUUGUUCUGGAAUUCUCGGGUGCCAA`: “RBNS enrichment (R)” 1.
For `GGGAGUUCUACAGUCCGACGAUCGAGUGCAGAAGGGUGCGCCUCUUCCCUCUACCCCCGCACCACCUGCUGUGUGCCAGCCUGAGACGGUUCCUGCCUGUCUUGGGGGUUGGUGGAGGGUGGAGGCAGUUCUGUGGAAUUCUCGGGUGCCAA`, “RBNS enrichment (R)” read 0.499.
`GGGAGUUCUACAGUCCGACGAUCGCCCUGUCCUUCUCAUGGACUCCAUUCAUGUCUGCUCCUCACUAACAGACUUGGGUUUUCCCAAUACCUGACUAUACUUUUGUGAUUCAGUUCAGCUUAAAGAACGCCAGUGGAAUUCUCGGGUGCCAA`: “RBNS enrichment (R)” 0.635.
For `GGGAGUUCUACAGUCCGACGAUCGACCAGGAGUUUGGGGAGCUUCAGGACAUUGCUGUGCUUUGGGGAUUCCCUCCACAUGCUGCACGCGCAUCUCGCCCCCAGGGGCACUGCCUGGAAGAUUCAGGAGCCUGUGGAAUUCUCGGGUGCCAA`, “RBNS enrichment (R)” read 1.17.
`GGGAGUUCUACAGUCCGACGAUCUGUCCAAUGGAUGAAGUUGAUUCAUAUUGCAUCAUAGUGUGUCAUAUUUAAGCUCACAUUAGAGUUAAGUUGUAUUUUAUGUUAUUUAUAGAUCUGAAUUUUCUAUGUUUUGGAAUUCUCGGGUGCCAA`: “RBNS enrichment (R)” 0.821.

Study 3 — technique: RNA Bind-n-Seq; form: RNA; medium: in vitro; tested at: not given; notes: RNA with constant flanks, ends assumed; relative to: input RNA pool; direction: higher = stronger binding
Target: RING finger protein unkempt homolog, zinc fingers 1-6, GST-SBP tag (UNK, Homo sapiens, UniProt Q9C0B0, residues 30-357)
Construct (chain): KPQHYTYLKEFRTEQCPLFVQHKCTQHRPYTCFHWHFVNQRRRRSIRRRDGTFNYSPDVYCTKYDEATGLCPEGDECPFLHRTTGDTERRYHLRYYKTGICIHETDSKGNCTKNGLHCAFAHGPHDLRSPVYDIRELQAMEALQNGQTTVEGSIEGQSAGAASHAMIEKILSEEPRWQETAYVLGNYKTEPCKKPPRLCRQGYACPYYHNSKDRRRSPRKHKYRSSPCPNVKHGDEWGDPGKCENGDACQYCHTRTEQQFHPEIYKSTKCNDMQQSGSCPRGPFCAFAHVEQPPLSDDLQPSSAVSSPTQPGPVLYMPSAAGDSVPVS
With `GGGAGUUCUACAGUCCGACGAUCUCCGAACACAAAAUCUUAUUCCUUGGAGCAGGAGAGGCUGCUCUUGGAAUUGCAAAUCUUACCGUUAUGUCUAUGGUAGAAAAUGGCCUGUCAGAACAAGAGGCACAAAAGAAAAUCUGGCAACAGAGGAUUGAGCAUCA` the bound/input enrichment was 0.222 ratio.
`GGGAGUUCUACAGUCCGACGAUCAGGAGGAGGUUUGCUUCCCGGAUCAUAGAUAGUCUGUUUAAUACAGUAACUGAUAAGAAGACCGCUAUUUUGGGAUUUGCAUUCAAAAAGGACACUGGUGAUACAAGAGAAUCUUCUAGUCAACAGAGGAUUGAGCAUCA` has a bound/input enrichment of 5.41 ratio.
The bound/input enrichment of `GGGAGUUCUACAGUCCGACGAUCGAGCCAUUCUAAAAGUGACCAGCAGGAGGGAUCUAGUAGUGAAUAAUAUCUUAAUAGCAAUUUCCGGAGAAAAUGACUCUUUCGUCCAGAAGAGCUCUGCAGAACCAGGGCUCCCGUUUACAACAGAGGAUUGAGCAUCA` is reported as 2.7 ratio.
`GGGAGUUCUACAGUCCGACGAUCCGAGACAAAGCAUCUAGAAAUAUGAGAGGGUCACGGAUGAAUGGACUUCCAAGUCCCACUCACCGUGCCCACUGUAGCUUCUACAGAACCAGAACCUUGCAGGCAUUAAGUAAUGAGAAGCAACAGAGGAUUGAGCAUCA` gave a bound/input enrichment of 0.399 ratio.
With `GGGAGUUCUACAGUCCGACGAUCCUUAUGUAUCUACUAGCAUAUCCACAAAAGCCCAUGGUUAAAACAAAAACAAUCGAGUUGACCGAUUUUGAGAAGUUGCCGGCUGGCCAGAACGCAACUGUUGCCGUGAUGAGCUACAGCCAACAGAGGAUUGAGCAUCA` the bound/input enrichment was 0.378 ratio.
The bound/input enrichment of `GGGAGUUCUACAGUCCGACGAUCACUGGUGUGAUCAUUGUUGGACUGCAGGGGGAAGCUGAGCGUGGACCCCGCUUUCCCCGGGCCCGCAGUGAGGCUACGAUUCGUGAGAAUGCGCCCCCAGGGACUCCUAUUGUCUCCCCCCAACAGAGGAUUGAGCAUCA` is reported as 0.0968 ratio.
`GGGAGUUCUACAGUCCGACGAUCAAGGGAGAUUAUUUCCGGUAUCUUGCUGAAGUAGCUUGUGGCGAUGAUCGAAAACAAACAACCGAAAAUUCCCAAGGAGCCUACCAAGAGGCGUUUGAUAUAAGCAAGAAGGAGAUGCAGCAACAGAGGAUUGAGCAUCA` gave a bound/input enrichment of 0.383 ratio.
For `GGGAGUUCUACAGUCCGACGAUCUCUUAAUCAUAGUCUACCAUCAAAUAUUUUAGGAGUAUCUUUAAUGUUUAGAUAGUAUAUCCGCAGCAUGCAAUAAUUACAUCAUAAGUUCUCAAGCAGAGGCAGUCUAUUGCAAGGACCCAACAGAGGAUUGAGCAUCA`, the bound/input enrichment was 2.36 ratio.

Study 4 — technique: protein binding microarray; form: double-stranded DNA, one strand shown; medium: in vitro; tested at: not given; relative to: not given; direction: higher = stronger binding
Target: Histone acetyltransferase KAT6A, winged helix 1, GST fusion (KAT6A, Homo sapiens, UniProt Q92794, residues 1-85)
Notes: 8-mer, flanks averaged, mean of 2 arrays, mostly near background
Construct (chain): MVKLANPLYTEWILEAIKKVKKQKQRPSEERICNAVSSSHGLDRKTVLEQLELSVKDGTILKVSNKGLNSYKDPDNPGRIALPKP
The E-score of `CCGTTCAA` is reported as 0.143.
`AGGTTCTG` gave an E-score of -0.0341.
With `ACTTTAAG` the E-score was -0.0836.
`AACGTTGT` gave an E-score of -0.0226.
For `TCGGCACA`, the E-score was 0.138.
`GTACCCGA` has an E-score of 0.127.
`CTATAGCC` has an E-score of -0.00371.
`GTCTCTTA` gave an E-score of -0.0377.
`TCCGGAAA` has an E-score of 0.0979.
`AATATCAT` has an E-score of 0.0259.
`CGGTAACC` gave an E-score of 0.324.
With `CGTTTTGA` the E-score was -0.0413.
With `CTGCCTTC` the E-score was -0.0818.
`AAGGTAGC` gave an E-score of -0.0525.
`ACTTATAA` has an E-score of -0.209.
`CGGTCCGC` gave an E-score of 0.358.
The E-score of `CTCTCTGC` is reported as -0.0906.
With `AACATCAC` the E-score was -0.111.
For `ACCGGGGC`, the E-score was 0.268.
`AAAATAGC` has an E-score of -0.09.
`CCTTAGAC` gave an E-score of -0.132.
For `AAGTAAAG`, the E-score was -0.0506.
`CAGCTAGA` gave an E-score of -0.212.
For `CTTGCTAC`, the E-score was -0.168.
With `CTACGCTA` the E-score was 0.298.

A few entries again (study 1):
Under “mean fluorescence intensity”, `2'F-ANA at 4 5 6 10` is recorded as 57.9 a.u.
For `2'F-ANA at 2 3 5 7 8 9 12 15`, “mean fluorescence intensity” read 254 a.u.
`2'F-ANA at 3 4 13 14 15`: “mean fluorescence intensity” 306 a.u.
`2'F-ANA at 2 5 6 8 10 15`: “mean fluorescence intensity” 46.6 a.u.
Under “mean fluorescence intensity”, `2'F-ANA at 4 6 8 11 13 14` is recorded as 80.9 a.u.
`2'F-ANA at 2 4 6 7 8 11` — result for “mean fluorescence intensity”: 270 a.u.
